Experimental data gathered from unrelated publications.
Each line is one published result; not all experiments were run side by side. ± gives the spread as reported.

N#Cc1ccc2c(c1)[C@H]1CCCN(C(=O)c3ccc4[nH]cnc4c3)[C@H]1C2 — plasma level (refers to: cortisol; human, Phase II trial; oral, 80 mg once daily, last treatment, HPA axis, mean): 235 nmol/L
C[C@@H](O)[C@H]1C(=O)N2C(C(=O)O)=C(S[C@@H]3CN[C@H](C(=O)N(C)C)C3)[C@H](C)[C@H]12 — MIC (Stenotrophomonas maltophilia; broth microdilution; clinical isolate RKI-No 136/09): > 64 µg/mL
N=C(N)c1ccc(OCCC(CCOc2ccc(C(=N)N)cc2)c2ccccc2)cc1 (stereo not shown) — MIC (Escherichia coli; BW25113; compound alone, vancomycin checkerboard): > 200 µg/mL
C#CCON=C1C=CC(=C(C#N)c2ccccc2)C=C1 — MIC (Pichia norvegensis; broth dilution; ATCC 96139; 48 h, 37 °C): 32 µg/mL
Cn1cc(-c2ccc(-c3cncc(Cl)c3N3CCC4(CCNC4=O)CC3)cc2)cn1 — log2 fold change (COLO 205; gene expression, microarray, refers to: SQSTM1 mRNA; concentration not given, 6 h; reference: untreated cells): 2.41
CC(=O)ON=C1C=CC(=C(C#N)c2ccccc2)C=C1 — MIC (Pichia norvegensis; broth dilution; ATCC 96139; 48 h, 37 °C): 8 µg/mL
CC(C)C[C@H](NC(=O)C[C@H](O)[C@H](CC(C)C)NC(=O)[C@H](Cc1c[nH]cn1)NC(=O)CNC(=O)[C@@H](NC(=O)[C@H](C)NC(=O)[C@H](Cc1c[nH]c2ccccc12)NC(=O)[C@H](CCC(N)=O)NC(=O)[C@@H](Cc1ccccc1)NC(=O)COCCOCCNC(=O)CCC(C(=O)O)N1CCN(CC(=O)O)CCN(CC(=O)O)CCN(CC(=O)O)CC1)C(C)C)C(N)=O (stereo partly shown) [lutetium-177 labelled] — tissue uptake (female BALB/c nu/nu mice, liver; intravenous, 100 pmol, 90 h, together with: PA 300 µg): 0.3 ± 0.5 %ID/g
CC(=O)NC[C@H]1CN(c2ccc(N3CCOCC3)c(F)c2)C(=O)O1 — MIC (Phocaeicola dorei; HM-719): < 2.96 µM
CC(C)C[C@@H]1NC(=O)[C@@H](Cc2ccccc2)NC(=O)[C@H](CCN)NC(=O)[C@@H](NC(=O)[C@H](CCN)NC(=O)[C@@H](N)[C@@H](C)O)CCNC(=O)[C@H]([C@@H](C)O)NC(=O)[C@H](CCN)NC(=O)[C@H](CCN)NC1=O — MIC (Escherichia coli; checkerboard; W3110; concentration not given, together with: rifampicin): 0.09 µg/mL
Cc1ccc(CCC(=O)Nc2nnc(S(N)(=O)=O)s2)cc1 — MIC (Phocaeicola dorei; HM-717): > 784 µM
C[C@@H](O)[C@H]1C(=O)N2C(C(=O)O)=C(S[C@@H]3CN[C@H](C(=O)N(C)C)C3)[C@H](C)[C@H]12 — MIC (Helicobacter pylori; broth microdilution; SS1; 48 h, microaerobic): 2 µg/mL
Cc1cc(Nc2ccc(S(F)(F)(F)(F)F)cc2)n2nc(C(C)(F)F)nc2n1 — patients with eye disorders (Plasmodium falciparum; P. falciparum malaria patients; oral, 400 mg): 7.7%
CC(C)n1ncc2c(C(=O)NCC3(C)CNC3)cc(C3CC3)nc21 — plaque area (enterovirus A71; Tainan/4643/1998; 3 µM): 0%
CC(C)(C)OCC1NC(=O)C(C(=O)NC(C(=O)NC2C(=O)N3C2SC(C)(C)C3C(=O)O)c2ccccc2)=C1O (stereo not shown) — MIC (Escherichia coli; broth microdilution; ATCC 25922 wild type; no clavulanic acid): 12.5 µg/mL
CCCCCCCCCC(=O)N[C@@H](Cc1c[nH]c2ccccc12)C(=O)N[C@H](CC(N)=O)C(=O)N[C@@H](CC(=O)O)C(=O)N[C@@H]1C(=O)NCC(=O)N[C@@H](CCCN)C(=O)N[C@@H](CC(=O)O)C(=O)N[C@H](C)C(=O)N[C@@H](CC(=O)O)C(=O)NCC(=O)N[C@H](CO)C(=O)N[C@@H]([C@H](C)CC(=O)O)C(=O)N[C@@H](CC(=O)c2ccccc2N)C(=O)O[C@@H]1C — MIC (Staphylococcus aureus; SH1000; together with: lysophosphatidylethanolamine, molar ratio 1): 1 µg/mL
C#CCOC(=O)ON=C1C=CC(=C(C#N)c2ccccc2)C=C1 — MIC (Pichia norvegensis; broth dilution; ATCC 96139; 48 h, 37 °C): 16 µg/mL
CC(C)(C)Oc1ccc(CC2NC(=O)C(C(=O)NC(C(=O)NC3C(=O)N4C3SC(C)(C)C4C(=O)O)c3ccccc3)=C2O)cc1 (stereo not shown) — MIC (Escherichia coli; broth microdilution; BW25113 wild type; 18 h): 12.5 µg/mL
CNC(C)C1CCC(N)C(OC2C(N)CC(N)C(OC3OCC(C)(O)C(NC)C3O)C2O)O1 (stereo not shown) — MIC (Stenotrophomonas maltophilia; broth microdilution; clinical isolate RKI-No 729/15): > 8 µg/mL
NC(=O)c1cnc2[nH]ccc2c1N[C@@H]1[C@@H]2CC3C[C@H]1C[C@@](O)(C3)C2 — percent change (regulatory T cells, flow cytometry; Japanese humans, peripheral blood; 60 mg single dose; reference: baseline): -0.38%
CC1(C)S[C@@H]2[C@H](NC(=O)[C@H](N)c3ccccc3)C(=O)N2[C@H]1C(=O)O — MIC (Stenotrophomonas maltophilia; broth microdilution; clinical isolate RKI-No 136/09): 8 µg/mL
O=C(O)CNC(=O)Cc1ccccc1 — sarcomere length (ventricular cardiomyocytes, C57BL/6 mouse; dose not given, 0.184 s): 1.62 µm
O=C(O)c1cn(C2CC2)c2cc(N3CCNCC3)c(F)cc2c1=O — MIC (Providencia alcalifaciens; ATCC 9886): 0.5 µM
